Experimental data gathered from unrelated publications.
Compare with care: the assays were run in different laboratories. Several values in a cell are separate wells, animals, samples, runs or records. Numbers after ± are the reported error.
DRD4: D(4) dopamine receptor (DRD4, Homo sapiens, UniProt P21917)
Chain of UniProt P21917 (whole entry, looked up): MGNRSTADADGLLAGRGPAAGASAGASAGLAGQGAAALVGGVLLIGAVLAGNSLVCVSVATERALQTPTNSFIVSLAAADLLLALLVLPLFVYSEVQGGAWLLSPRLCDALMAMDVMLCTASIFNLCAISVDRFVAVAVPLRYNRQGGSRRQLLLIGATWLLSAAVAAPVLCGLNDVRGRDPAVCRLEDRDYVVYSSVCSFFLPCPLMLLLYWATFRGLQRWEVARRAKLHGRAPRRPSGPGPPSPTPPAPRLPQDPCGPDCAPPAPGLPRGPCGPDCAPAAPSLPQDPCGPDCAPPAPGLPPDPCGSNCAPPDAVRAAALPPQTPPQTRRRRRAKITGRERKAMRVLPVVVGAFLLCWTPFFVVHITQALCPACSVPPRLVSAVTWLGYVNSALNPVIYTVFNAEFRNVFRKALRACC
CNR1: Cannabinoid receptor 1 (CNR1, Homo sapiens, UniProt P21554)
Chain of UniProt P21554 (whole entry, looked up): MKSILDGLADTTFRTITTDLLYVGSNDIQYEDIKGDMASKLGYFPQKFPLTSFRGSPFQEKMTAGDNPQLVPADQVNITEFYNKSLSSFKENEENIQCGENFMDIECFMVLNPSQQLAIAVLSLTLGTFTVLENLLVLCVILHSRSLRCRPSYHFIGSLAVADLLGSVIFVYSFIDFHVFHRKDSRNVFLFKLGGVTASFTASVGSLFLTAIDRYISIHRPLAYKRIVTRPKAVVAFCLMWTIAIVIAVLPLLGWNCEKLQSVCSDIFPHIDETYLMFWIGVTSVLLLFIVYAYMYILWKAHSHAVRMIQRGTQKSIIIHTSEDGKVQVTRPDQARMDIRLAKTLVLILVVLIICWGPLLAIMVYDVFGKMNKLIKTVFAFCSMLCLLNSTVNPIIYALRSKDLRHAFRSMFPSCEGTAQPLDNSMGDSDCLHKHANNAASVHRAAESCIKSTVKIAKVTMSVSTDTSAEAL
CASP10: Caspase-10 (CASP10, Homo sapiens, UniProt Q92851)
Chain of UniProt Q92851 (whole entry, looked up): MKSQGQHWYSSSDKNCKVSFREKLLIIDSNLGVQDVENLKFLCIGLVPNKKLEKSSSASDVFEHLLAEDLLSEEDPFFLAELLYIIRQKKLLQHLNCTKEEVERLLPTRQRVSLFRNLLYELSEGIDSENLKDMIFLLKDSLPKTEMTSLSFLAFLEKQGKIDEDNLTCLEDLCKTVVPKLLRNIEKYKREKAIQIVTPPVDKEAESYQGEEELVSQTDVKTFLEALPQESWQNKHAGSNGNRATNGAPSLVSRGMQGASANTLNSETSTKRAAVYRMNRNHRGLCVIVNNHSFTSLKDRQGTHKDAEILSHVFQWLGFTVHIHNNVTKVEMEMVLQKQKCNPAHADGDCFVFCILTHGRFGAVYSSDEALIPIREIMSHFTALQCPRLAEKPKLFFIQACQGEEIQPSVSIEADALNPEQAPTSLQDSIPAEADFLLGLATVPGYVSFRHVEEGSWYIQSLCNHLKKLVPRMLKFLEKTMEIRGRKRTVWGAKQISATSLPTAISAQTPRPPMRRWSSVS
POL4: DNA polymerase IV (POL4, Saccharomyces cerevisiae, UniProt P25615)
Chain of UniProt P25615 (whole entry, looked up): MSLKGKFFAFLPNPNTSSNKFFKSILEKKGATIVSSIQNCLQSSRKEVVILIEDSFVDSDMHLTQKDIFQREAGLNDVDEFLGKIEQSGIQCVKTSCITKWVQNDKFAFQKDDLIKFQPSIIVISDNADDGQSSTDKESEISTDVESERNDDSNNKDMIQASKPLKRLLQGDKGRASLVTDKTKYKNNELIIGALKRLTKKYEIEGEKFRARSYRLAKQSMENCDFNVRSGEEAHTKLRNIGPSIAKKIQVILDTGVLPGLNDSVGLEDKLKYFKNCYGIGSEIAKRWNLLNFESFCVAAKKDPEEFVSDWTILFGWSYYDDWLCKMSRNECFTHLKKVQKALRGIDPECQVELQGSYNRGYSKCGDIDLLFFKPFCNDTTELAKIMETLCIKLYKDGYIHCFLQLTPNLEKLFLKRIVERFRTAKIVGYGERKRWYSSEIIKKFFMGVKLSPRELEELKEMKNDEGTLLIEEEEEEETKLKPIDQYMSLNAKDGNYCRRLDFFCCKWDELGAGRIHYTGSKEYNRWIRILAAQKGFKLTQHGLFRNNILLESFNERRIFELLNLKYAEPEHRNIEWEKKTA
HDAC8: Histone deacetylase 8 (HDAC8, Homo sapiens, UniProt Q9BY41)
Chain of UniProt Q9BY41 (whole entry, looked up): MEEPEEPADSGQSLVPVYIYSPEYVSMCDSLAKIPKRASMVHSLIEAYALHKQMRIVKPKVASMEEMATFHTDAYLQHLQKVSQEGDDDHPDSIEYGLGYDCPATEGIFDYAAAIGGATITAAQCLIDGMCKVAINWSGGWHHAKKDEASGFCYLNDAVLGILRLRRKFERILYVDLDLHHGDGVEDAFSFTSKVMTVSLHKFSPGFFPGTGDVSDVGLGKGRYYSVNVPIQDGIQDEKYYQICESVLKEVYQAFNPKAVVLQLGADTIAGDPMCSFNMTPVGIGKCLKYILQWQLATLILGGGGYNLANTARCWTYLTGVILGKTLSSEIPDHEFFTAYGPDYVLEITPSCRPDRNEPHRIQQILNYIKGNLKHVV
Chain of UniProt Q8ILG2 (whole entry, looked up): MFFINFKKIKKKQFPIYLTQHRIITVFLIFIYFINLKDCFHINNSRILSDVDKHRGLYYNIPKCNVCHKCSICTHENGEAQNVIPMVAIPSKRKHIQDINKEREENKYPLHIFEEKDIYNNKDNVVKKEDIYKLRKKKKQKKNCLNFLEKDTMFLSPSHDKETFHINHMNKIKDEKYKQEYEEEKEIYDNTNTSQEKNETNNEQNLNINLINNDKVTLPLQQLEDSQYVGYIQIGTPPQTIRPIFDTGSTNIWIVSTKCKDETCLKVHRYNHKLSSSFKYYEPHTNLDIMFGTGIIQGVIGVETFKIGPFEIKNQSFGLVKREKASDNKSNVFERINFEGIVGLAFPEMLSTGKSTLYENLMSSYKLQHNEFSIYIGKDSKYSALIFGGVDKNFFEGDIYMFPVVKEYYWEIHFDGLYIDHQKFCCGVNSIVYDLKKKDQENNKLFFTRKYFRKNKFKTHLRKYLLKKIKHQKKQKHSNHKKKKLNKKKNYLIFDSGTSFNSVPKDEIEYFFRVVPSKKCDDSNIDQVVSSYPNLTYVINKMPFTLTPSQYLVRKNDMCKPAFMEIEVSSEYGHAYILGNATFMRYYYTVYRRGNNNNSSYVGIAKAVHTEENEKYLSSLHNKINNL
Chain of UniProt P54760 (whole entry, looked up): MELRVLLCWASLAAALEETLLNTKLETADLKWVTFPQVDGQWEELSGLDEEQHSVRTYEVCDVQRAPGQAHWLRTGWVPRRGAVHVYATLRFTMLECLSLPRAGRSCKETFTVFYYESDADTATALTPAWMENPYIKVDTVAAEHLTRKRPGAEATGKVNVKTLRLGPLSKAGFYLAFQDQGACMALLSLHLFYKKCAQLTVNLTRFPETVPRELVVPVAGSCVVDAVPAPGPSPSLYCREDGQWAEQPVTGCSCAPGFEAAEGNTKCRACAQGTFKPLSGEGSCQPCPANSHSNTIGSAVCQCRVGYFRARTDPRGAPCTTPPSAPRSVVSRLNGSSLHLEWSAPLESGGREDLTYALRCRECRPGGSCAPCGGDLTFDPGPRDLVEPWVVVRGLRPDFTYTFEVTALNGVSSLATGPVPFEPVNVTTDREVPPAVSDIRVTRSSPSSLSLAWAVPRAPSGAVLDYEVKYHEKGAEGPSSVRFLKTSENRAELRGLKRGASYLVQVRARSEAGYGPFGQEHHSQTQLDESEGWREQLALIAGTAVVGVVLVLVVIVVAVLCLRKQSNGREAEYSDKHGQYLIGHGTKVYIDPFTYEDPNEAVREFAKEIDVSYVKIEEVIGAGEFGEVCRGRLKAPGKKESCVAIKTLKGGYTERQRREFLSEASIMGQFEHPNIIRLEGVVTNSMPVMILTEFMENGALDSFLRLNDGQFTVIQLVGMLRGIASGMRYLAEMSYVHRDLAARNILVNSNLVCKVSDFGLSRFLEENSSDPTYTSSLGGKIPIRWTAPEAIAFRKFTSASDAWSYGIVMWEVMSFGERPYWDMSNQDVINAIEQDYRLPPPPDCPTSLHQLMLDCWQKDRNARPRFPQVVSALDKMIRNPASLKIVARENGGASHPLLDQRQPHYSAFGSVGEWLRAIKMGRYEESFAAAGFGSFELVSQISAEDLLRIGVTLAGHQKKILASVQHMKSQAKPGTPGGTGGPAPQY
Chain of UniProt P05177 (whole entry, looked up): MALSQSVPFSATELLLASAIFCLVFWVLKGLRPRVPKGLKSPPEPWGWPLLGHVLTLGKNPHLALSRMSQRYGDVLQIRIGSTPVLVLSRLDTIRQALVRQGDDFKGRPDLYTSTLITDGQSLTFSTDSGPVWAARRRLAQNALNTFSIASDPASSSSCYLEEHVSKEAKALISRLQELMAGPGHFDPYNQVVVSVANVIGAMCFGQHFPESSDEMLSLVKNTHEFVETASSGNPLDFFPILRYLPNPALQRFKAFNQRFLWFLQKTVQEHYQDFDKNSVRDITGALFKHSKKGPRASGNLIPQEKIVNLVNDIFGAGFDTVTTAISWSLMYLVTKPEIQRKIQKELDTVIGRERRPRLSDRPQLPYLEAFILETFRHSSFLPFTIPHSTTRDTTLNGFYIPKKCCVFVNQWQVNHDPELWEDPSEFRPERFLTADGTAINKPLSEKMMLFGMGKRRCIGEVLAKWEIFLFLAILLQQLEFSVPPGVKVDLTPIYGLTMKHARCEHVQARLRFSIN
Chain of UniProt P35348 (whole entry, looked up): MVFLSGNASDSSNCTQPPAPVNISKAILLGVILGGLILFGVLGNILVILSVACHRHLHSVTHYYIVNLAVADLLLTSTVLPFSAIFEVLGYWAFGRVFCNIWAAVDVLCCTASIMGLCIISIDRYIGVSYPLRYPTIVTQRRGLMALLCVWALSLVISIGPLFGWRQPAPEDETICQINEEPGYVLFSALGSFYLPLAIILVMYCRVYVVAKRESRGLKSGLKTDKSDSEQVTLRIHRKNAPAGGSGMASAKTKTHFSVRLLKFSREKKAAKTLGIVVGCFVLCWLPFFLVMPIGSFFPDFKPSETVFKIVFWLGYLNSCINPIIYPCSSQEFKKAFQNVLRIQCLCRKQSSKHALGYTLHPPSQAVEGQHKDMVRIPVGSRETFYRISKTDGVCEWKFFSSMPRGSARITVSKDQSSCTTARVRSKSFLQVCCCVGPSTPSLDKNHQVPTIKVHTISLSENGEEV

SMILES | target or system | assay | system | conditions | how to read | endpoint | value
CNS(=O)(=O)Nc1nccc(Cc2c(C)c3ccc(Oc4ncccc4F)cc3oc2=O)c1F | Ca Ski | cell viability, CellTiter-Glo |  | 7 days |  | IC50 | > 1000 nM
CC(C)c1ccc(N(C)c2ccc3c(c2)OCC[C@H]3CNc2cnccc2C(=O)O)cc1 | KDM4C (Homo sapiens, UniProt Q9H3R0) | enzyme activity, inhibitor, TR-FRET, item: H3K9me3 demethylation |  |  |  | Ki | 38 ± 4 nM
Cc1ccnc(OC[C@H]2CN(CCN3CCc4ccccc43)CCO2)c1 | DRD4 | ligand displacement, radioligand |  |  |  | Ki | 1930 nM
CCOC(=O)C(CC)(CCCSCCOCCOCCOCCN)NC(=O)c1ccc(C2CC2)c(Cc2ccc(F)cc2)n1 (stereo not drawn) | CNR1 | ligand displacement, radioligand |  | cell membranes |  | Ki | 724 nM
CC[C@H](NC(=O)[C@@H](NC(=O)[C@H](CC(=O)O)NC(C)=O)[C@@H](C)O)C(=O)N[C@@H](CC(=O)O)C(=O)COC(=O)c1c(C)cccc1C | CASP10 | enzyme activity, inhibitor |  |  |  | kinact/KI | 122000 M⁻¹ s⁻¹
CCN(CC)CCNc1ccc(C)c2sc3ccccc3c(=O)c12 | Bcl-2-related protein A1 (Mus musculus, UniProt Q07440, C113S/P104K) | ligand displacement, FP |  |  |  | Ki | 15200 nM
Fc1cc(-c2ccc3c(n2)[nH]c2ccncc23)ccn1 | Microtubule-associated protein tau, PSP brain aggregates (MAPT, Homo sapiens, UniProt P10636) | binding, competition binding | human, PSP brain tissue | added: [3H]compound tracer |  | Ki | 8.9 nM
Cn1ncc2cc(CN3CCC(F)(F)C(COc4ccc(C#N)cc4)C3)ccc21 (stereo not drawn) | DRD4 | ligand displacement, radioligand |  |  |  | Ki | 8.9 nM
CCC1(CC)CC(=O)N(C2c3cc(C(=O)NC4c5ccccc5CC4O)ccc3OC2(C)COC)C(=N)N1 (stereo not drawn) | Plasmepsin IX (Plasmodium falciparum, UniProt Q8ILG2) | enzyme activity, inhibitor, peptide cleavage |  |  |  | Ki | 0.683 nM and 0.68 nM
Fc1ccc(OCC2CN(Cc3cn4ccccc4n3)CCC2(F)F)cc1 (stereo not drawn) | DRD4 | ligand displacement, radioligand |  | cell membranes |  | Ki | 73 nM
Cn1ccc2c(N3CCN(CCCCOc4ccc5c(c4)NC(=O)CC5)CC3)cccc21 | HTR6 (Homo sapiens, UniProt P50406) | ligand displacement, radioligand |  |  |  | Ki | 1250 nM
CCN(CC)CC(=O)Nc1cccc(-n2cc(-c3ccc4ccc(-c5cn(-c6cccc(NC(=O)CN(CC)CC)c6)nn5)cc4c3)nn2)c1 | EPHB4 (Homo sapiens, UniProt P54760) | enzyme activity, inhibitor |  |  |  | IC50 | > 10000 nM
CCc1c(Cl)cccc1N1CCN(C[C@H](F)CCNC(=O)c2cc3ccccc3[nH]2)CC1 | DRD4 | ligand displacement, radioligand |  | cell membranes |  | Ki | > 10000 nM
COc1ccc(CN2CCC(F)(F)C(COc3ccc(Cl)c(F)c3)C2)cc1F (stereo not drawn) | DRD4 | ligand displacement, radioligand |  | cell membranes |  | Ki | 53 nM
O=C(NCCOP(=O)(O)OP(=O)(O)OP(=O)(O)O)OCC1c2ccccc2-c2ccccc21 | POL4 | DNA polymerase activity, inhibitor, [3H]dTTP incorporation |  | added: poly(dA)/oligo(dT) |  | Ki | 450 nM
CCOC(=O)[C@](CC)(CCCSCCOCCOCCN)NC(=O)c1ccc(C2CC2)c(Cc2ccc(F)cc2)n1 | CNR1 | ligand displacement, radioligand |  | cell membranes |  | Ki | 64 nM
O=C(NCCCCCCOP(=O)(O)OP(=O)(O)OP(=O)(O)O)OCC1c2ccccc2-c2ccccc21 | POL4 | DNA polymerase activity, inhibitor, [3H]dTTP incorporation |  | added: poly(dA)/oligo(dT) |  | Ki | 250 nM
CCOC(=O)[C@](CC)(CCCSCCOCCOCCNC(=O)CCCCCN1C(=CC=CC=CC2=[N+](C)c3ccc4ccccc4c3C2(C)C)C(C)(C)c2c1ccc1ccccc21)NC(=O)c1ccc(C2CC2)c(Cc2ccc(F)cc2)n1 | CNR1 | ligand displacement, radioligand |  | cell membranes |  | Ki | 108 nM
CCCCCC=CC=C1C(=O)C=CC1CC=CCCCC(=O)O (stereo not drawn) | Bleomycin hydrolase (Homo sapiens, UniProt Q13867) | competitive isoTOP-ABPP | proteome, soluble, MDA-MB-231 | 100 µM, 60 min, added: iodoacetamide probe | relative to: DMSO over compound-treated, higher = stronger cysteine blockade | isoTOP-ABPP competition ratio | 5.9
Fc1ccc(OCC2CN(Cc3ncn4ccccc34)CCC2(F)F)cc1 (stereo not drawn) | DRD4 | ligand displacement, radioligand |  |  |  | Ki | 117 nM

SMILES | target or system | assay | system | conditions | how to read | endpoint | value
CN1CCCNC(=O)c2cccc(c2)C(=O)NCCCN(C)CCCNc2cccc3c2C(=O)c2cccc(c2C3=O)NCCC1 | SAS | RNA-Seq, item: PNN mRNA |  | 1 µM, 24 h | relative to: untreated cells | log2 fold change | 0.193
CC(C)(C)c1cccc(OS(=O)(=O)Oc2cc(F)cc(C(=O)NO)c2)c1 | HDAC8 | enzyme activity, inhibitor, fluorescence |  |  |  | Ki | 4560 nM
COc1ccc(CN2CCC(F)(F)C(COc3ccc(F)c(C)c3)C2)cc1F (stereo not drawn) | DRD4 | ligand displacement, radioligand |  | cell membranes |  | Ki | 12.9 nM
C=C(NC(=O)c1csc(-c2nc3c(cc2O)-c2nc(cs2)C(=O)NC(C(C)O)C(=O)NC(=C(C)OC)c2nc(cs2)C(=O)NC2c4nc(cs4)C(=O)NC(COC(=O)c4c5c6c(cccc6n4O)COC(=O)C(OC4CC(C)(O)C(N(C)C)C(C)O4)C2OC5)c2nc-3cs2)n1)C(N)=O (stereo not drawn) |  |  | Sprague-Dawley rats, both sexes, plasma | intravenous infusion, 6 mg/kg |  | AUC(0-inf) | 2100 ng·h/mL
COc1ccccc1-c1ccn2nc(NC(=O)C3CC3)cc2c1 | SIK2 (Homo sapiens, UniProt Q9H0K1) | enzyme activity, inhibitor |  |  |  | Ki | 22 nM
CCOC(=O)C(CC)(CCCSCCOCCOCCN=[N+]=[N-])NC(=O)c1ccc(C2CC2)c(Cc2ccc(F)cc2)n1 (stereo not drawn) | CNR1 | ligand displacement, radioligand |  | cell membranes |  | Ki | 464 nM
Cc1ncsc1-c1ccc(C(C)NC(=O)C2CC(O)CN2C(=O)C(NC(=O)CCCCCCCCCCN2CCCC(Nc3ncc(Cl)c(Nc4ccccc4S(=O)(=O)C(C)C)n3)C2)C(C)(C)C)cc1 (stereo not drawn) | 22Rv1 | RNA-seq, item: PGBD5 mRNA |  | concentration not given | relative to: DMSO | log2 fold change | -2.05
CC(C)OCCOCc1ccc(OCC(O)CN(N=O)C(C)C)cc1 (stereo not drawn) | Salmonella typhimurium | Ames test | TA1537 | 5 µg/plate, 30 % hamster S9 | relative to: solvent control | revertant fold increase | 0.8 fold
Cn1ncc2cc(CN3CCC(F)(F)C(COc4cccc(C#N)c4)C3)ccc21 (stereo not drawn) | DRD4 | ligand displacement, radioligand |  | cell membranes |  | Ki | 59.6 nM
COc1ccc(-c2coc3cc(O)cc(O)c3c2=O)cc1 | Cytochrome P450 1A2 (CYP1A2, Homo sapiens, UniProt P05177) | enzyme activity, inhibitor | human, liver microsomes | 15 min |  | Ki | 55800 nM
COc1ccc(CN2CCC(F)(F)C(COc3ccc(F)cc3)C2)cc1F (stereo not drawn) | DRD4 | ligand displacement, radioligand |  | cell membranes |  | Ki | 220 nM
CNC[C@H](O)c1cccc(OCCOCCOCCOCC#Cc2cccc(Cn3c(-c4ccccc4)c(-c4ccccc4)c4c(=N)n([C@H]5CC[C@H](O)CC5)cnc43)c2)c1 | ADRA1A (Homo sapiens, UniProt P35348) | ligand displacement, radioligand |  | cell membranes |  | Ki | 1120 nM
Fc1ccc(OCC2CN(Cc3ncc4ccccn34)CCC2(F)F)cc1 (stereo not drawn) | DRD4 | ligand displacement, radioligand |  | cell membranes |  | Ki | 1410 nM
O=C(NO)c1cccc(OS(=O)(=O)Oc2ccccc2)c1 | HDAC8 | enzyme activity, inhibitor, fluorescence |  |  |  | Ki | 77 nM
COC1CN([C@H]2CC[C@H]([C@@]3(C)Oc4c(Cl)cc(C(=O)NCc5c(SC)cc(C)[nH]c5=O)c(C)c4O3)CC2)C1 |  | RNA-seq, item: STAB2 | human, whole blood | dose not given, 24 h | relative to: pretreatment baseline | log2 fold change | 1.31
CCOC(=O)C(CC)(CCCSCCOCCOCCOCCNc1ccc([N+](=O)[O-])c2nonc12)NC(=O)c1ccc(C2CC2)c(Cc2ccc(F)cc2)n1 (stereo not drawn) | CNR1 | ligand displacement, radioligand |  | cell membranes |  | Ki | 460 nM
Cc1cc(C(C)(C)C)ccc1OS(=O)(=O)Oc1cncc(C(=O)NO)c1 | HDAC8 | enzyme activity, inhibitor, fluorescence |  |  |  | Ki | 3280 nM
CC(=O)N[C@@H](CO)C(=O)N[C@H](C(=O)N[C@@H](CCC(=O)O)C(=O)N[C@H](C(=O)N[C@@H](CC(=O)O)C(=O)COC(=O)c1c(C)cccc1C)C(C)C)C(C)(C)C | CASP10 | enzyme activity, inhibitor |  |  |  | kinact/KI | 207000 M⁻¹ s⁻¹
O=C(CN1CCO[C@@H](COc2cccc(Cl)c2)C1)N1CCc2ccccc21 | DRD4 | ligand displacement, radioligand |  |  |  | Ki | 536 nM

Repeated from above:
SMILES | target or system | assay | system | conditions | how to read | endpoint | value
CCOC(=O)C(CC)(CCCSCCOCCOCCN=[N+]=[N-])NC(=O)c1ccc(C2CC2)c(Cc2ccc(F)cc2)n1 (stereo not drawn) | CNR1 | ligand displacement, radioligand |  | cell membranes |  | Ki | 464 nM
O=C(NO)c1cccc(OS(=O)(=O)Oc2ccccc2)c1 | HDAC8 | enzyme activity, inhibitor, fluorescence |  |  |  | Ki | 77 nM
CC(C)(C)c1cccc(OS(=O)(=O)Oc2cc(F)cc(C(=O)NO)c2)c1 | HDAC8 | enzyme activity, inhibitor, fluorescence |  |  |  | Ki | 4560 nM
COC1CN([C@H]2CC[C@H]([C@@]3(C)Oc4c(Cl)cc(C(=O)NCc5c(SC)cc(C)[nH]c5=O)c(C)c4O3)CC2)C1 |  | RNA-seq, item: STAB2 | human, whole blood | dose not given, 24 h | relative to: pretreatment baseline | log2 fold change | 1.31
